# Assay results gathered from unrelated publications.
# Protocols differ between the studies behind these lines.
# UniProt O95747, sequence (whole entry, looked up): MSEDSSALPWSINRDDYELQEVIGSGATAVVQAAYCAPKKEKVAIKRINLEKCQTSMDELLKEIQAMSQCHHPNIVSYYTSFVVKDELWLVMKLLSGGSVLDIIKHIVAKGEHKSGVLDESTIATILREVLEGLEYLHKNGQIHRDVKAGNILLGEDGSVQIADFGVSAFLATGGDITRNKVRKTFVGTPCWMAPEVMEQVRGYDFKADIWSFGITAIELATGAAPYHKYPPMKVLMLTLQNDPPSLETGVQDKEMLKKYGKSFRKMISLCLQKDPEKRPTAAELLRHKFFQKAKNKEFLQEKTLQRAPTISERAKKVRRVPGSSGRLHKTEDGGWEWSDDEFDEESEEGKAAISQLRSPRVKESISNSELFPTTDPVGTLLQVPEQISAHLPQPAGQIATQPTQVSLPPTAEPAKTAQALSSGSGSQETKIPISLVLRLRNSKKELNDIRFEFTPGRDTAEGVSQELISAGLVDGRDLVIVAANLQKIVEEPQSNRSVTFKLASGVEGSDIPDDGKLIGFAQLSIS
# UniProt Q8WU08, sequence (whole entry, looked up): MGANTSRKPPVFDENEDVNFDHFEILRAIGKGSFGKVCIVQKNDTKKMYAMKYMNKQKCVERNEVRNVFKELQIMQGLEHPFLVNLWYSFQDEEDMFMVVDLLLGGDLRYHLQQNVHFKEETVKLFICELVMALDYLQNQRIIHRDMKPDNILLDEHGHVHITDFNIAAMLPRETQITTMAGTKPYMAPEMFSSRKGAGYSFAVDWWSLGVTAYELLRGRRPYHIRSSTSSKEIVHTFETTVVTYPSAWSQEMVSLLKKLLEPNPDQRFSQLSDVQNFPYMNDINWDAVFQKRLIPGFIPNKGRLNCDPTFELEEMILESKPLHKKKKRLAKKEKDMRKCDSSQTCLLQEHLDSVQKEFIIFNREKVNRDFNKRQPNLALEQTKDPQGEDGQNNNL
Structure (SMILES),target or system,test,system,setting,quantity,result
CC(=O)c1c(C)c2cnc(Nc3ccc(C4CCN(CCS(C)(=O)=O)CC4)cn3)nc2n(C2CCCC2)c1=O,,metabolic stability,"dog, liver microsomes",,half-life,19.1 min
CC(C)C[C@H](NC(=O)[C@H](Cc1ccccc1)NC(=O)[C@H](Cc1ccccc1)NC(=O)Cc1ccc(-c2ccccc2)cc1)C(=O)N[C@@H](CCCCN)C(=O)N[C@@H](CCCNC(=N)N)C(=O)N[C@H](C(=O)N[C@@H](Cc1c[nH]c2ccccc12)C(=O)N[C@@H](CCCCN)C(=O)N[C@@H](CCCNC(=N)N)C(=O)O)C(C)C,,metabolic stability,"dog, liver microsomes",15 min,compound remaining,86.9%
CC[C@H](C)CCCCC(=O)N[C@@H](CCN)C(=O)N[C@H](C(=O)N[C@@H](CCN)C(=O)N[C@H]1CCNC(=O)[C@H]([C@@H](C)O)NC(=O)[C@H](CCN)NC(=O)[C@H](CCN)NC(=O)[C@H](CC(C)C)NC(=O)[C@@H](CC(C)C)NC(=O)[C@H](CCN)NC1=O)[C@@H](C)O,,,"male Sprague-Dawley rat, plasma","subcutaneous, 10 mg/kg",AUC(0-inf),22500 ng·h/mL
Cc1cc(NC(=O)c2cc(S(=O)(=O)N3CCCCC3)ccc2C)no1,"Dihydroorotate dehydrogenase (quinone), mitochondrial (PFF0160c, Plasmodium falciparum, UniProt Q08210, E182D)","enzyme activity, inhibitor, absorbance",,,IC50,4.85 µM
CCC[C@@](N)(CO)CCc1ccc(OCCCCCC(C)C)cc1,,,"rat, plasma","oral, 10 mg/kg",Cmax,279 nM
Nc1nc(-c2ccccc2)nc2[nH]nc(Nc3ccc(C(F)(F)F)cc3)c12,,,"mouse, plasma","oral, 100 mg/kg, 5 h",concentration,912 ng/mL
CC(C)CC(=O)OC[C@H]1O[C@@](C#N)(c2ccc3c(N)ncnn23)[C@H](O)[C@@H]1O,,metabolic stability,"dog, hepatocytes",5 µM,half-life,< 4.36 min
N=C(N)NCCC[C@@H](NC(=O)[C@@H](N)Cc1ccccc1)C(=O)N[C@@H](Cc1ccccc1)C(=O)N[C@@H](CCCCN)C(N)=O,,,"human, plasma","subcutaneous, 25 mg, multiple doses, once daily, patients",AUC(0-t),5220 ng·h/mL
CN(C)C1(CNC(=O)c2ccc3c(c2)CCN3C(=O)c2ccccc2)CCOCC1,,,"male C57BL/6 mouse, plasma","intraperitoneal, 50 mg/kg, 2 h",concentration,133 ng/mL
[2H]c1c([2H])c([C@]2([2H])CCCN2C(=O)C(C)(C)Oc2ccc3cn[nH]c3c2)c([2H])c([2H])c1C([2H])([2H])[2H],"Serine/threonine-protein kinase 32A (STK32A, Homo sapiens, UniProt Q8WU08)","binding, competition with immobilised ligand",,1 µM,remaining binding,97%
CC(C)(N)CNC(=O)O[C@@H]1CCC[C@]2(C1)OOC1(O2)C2CC3CC(C2)CC1C3 (stereo partly drawn),,,"male CD-1 mouse, plasma","oral, 10 mg/kg",AUC(0-inf),604 ng·h/mL
Cc1cccc(C(=O)N2CCN(Cc3cccc(NC(=O)c4ccco4)c3)CC2)c1,"Dihydroorotate dehydrogenase (quinone), mitochondrial (PFF0160c, Plasmodium falciparum, UniProt Q08210)","enzyme activity, inhibitor, absorbance",,,IC50,2.53 µM
COC(=O)c1cc(-c2cccc(NC(=S)Nc3cccc(Cl)c3)c2)on1,Klebsiella pneumoniae,"microbial growth, broth dilution",BAA1705,,MIC,> 64 µg/mL
Cc1nn(C)cc1-c1nc2c(N3CCN(Cc4ccc(Cl)cc4)CC3)c(Cl)cnc2[nH]1,"Serine/threonine-protein kinase OSR1 (OXSR1, Homo sapiens, UniProt O95747)","binding, competition with immobilised ligand",,1 µM,remaining binding,66%
Cc1cc(C)nc(Nc2ncc(C(=O)NCCc3c(C)[nH]c4ccccc34)cn2)c1,,metabolic stability,"beagle dog, hepatocytes",1 µM,half-life,78 min
O=C(Nc1cccnn1)N1CCN([C@@H]2CCOc3cc(C(F)(F)F)ccc32)CC1,,,"male Sprague-Dawley rat, plasma","oral, 1 mg/kg",Cmax,480 nM
[18FH],,,"mouse, blood","intravenous, 1 h",tracer uptake,0.3 %ID/g
Nc1ncc(-c2nc(N3CCOCC3)nc(N3CCOCC3)n2)c(C(F)F)n1,"Tyrosine-protein kinase ABL1, phosphorylated (ABL1, Homo sapiens, UniProt P00519, H396P)","binding, competition with immobilised ligand",,10 µM,remaining binding,60%

# Repeated from above:
Structure (SMILES),target or system,test,system,setting,quantity,result
CC(C)C[C@H](NC(=O)[C@H](Cc1ccccc1)NC(=O)[C@H](Cc1ccccc1)NC(=O)Cc1ccc(-c2ccccc2)cc1)C(=O)N[C@@H](CCCCN)C(=O)N[C@@H](CCCNC(=N)N)C(=O)N[C@H](C(=O)N[C@@H](Cc1c[nH]c2ccccc12)C(=O)N[C@@H](CCCCN)C(=O)N[C@@H](CCCNC(=N)N)C(=O)O)C(C)C,,metabolic stability,"dog, liver microsomes",15 min,compound remaining,86.9%
[2H]c1c([2H])c([C@]2([2H])CCCN2C(=O)C(C)(C)Oc2ccc3cn[nH]c3c2)c([2H])c([2H])c1C([2H])([2H])[2H],"Serine/threonine-protein kinase 32A (STK32A, Homo sapiens, UniProt Q8WU08)","binding, competition with immobilised ligand",,1 µM,remaining binding,97%
Cc1cccc(C(=O)N2CCN(Cc3cccc(NC(=O)c4ccco4)c3)CC2)c1,"Dihydroorotate dehydrogenase (quinone), mitochondrial (PFF0160c, Plasmodium falciparum, UniProt Q08210)","enzyme activity, inhibitor, absorbance",,,IC50,2.53 µM
